Measured values collected from several papers.
Protocols differ between the studies behind these lines. ± marks the error that the study gave.
Organism: Plasmodium falciparum

Structure (SMILES)	observed	technique	strain	time	setting	IC50
CC1=N[C@H](C)Cc2c(-c3ccc(C)cc3)ccc(O)c21	parasite growth	SYBR Green	W2	96 h	drug-resistant strain, blood stage	962 nM
Cc1ccc(C(C)C)cc1.Clc1ccc2c(NCCNCc3ccccn3)ccnc2c1.[Cl-].[Cl][Ru+]	parasite growth	parasite lactate dehydrogenase	D10 chloroquine-sensitive	–	–	7690 ± 70 nM
N#Cc1c(-c2ccco2)[n+]([O-])c2ccc(C(F)(F)F)cc2[n+]1[O-]	parasite growth	[3H]hypoxanthine incorporation	K1 chloroquine-resistant	–	–	370 ± 120 nM
CC[C@H](C)[C@@H]1NC(=O)[C@H](CCCCN)NC(=O)[C@H](CCCCN)NC(=O)[C@H](Cc2ccc(O)cc2)NC(=O)[C@H](CC(C)C)NC(=O)[C@@H]2CCCN2C(=O)[C@H](C)NC(=O)CNC(=O)CNC(=O)[C@H](CO)NC(=O)CNC(=O)CNC(=O)[C@H](CO)NC(=O)[C@H](CCC(=O)O)NC(=O)[C@H](CC(C)C)NC(=O)[C@H](CC(C)C)NC(=O)[C@H](CCCCN)NC(=O)[C@H](CCCCN)NC(=O)[C@H]([C@@H](C)CC)NC(=O)[C@H]([C@@H](C)CC)NC(=O)[C@H](CCCCN)NC(=O)[C@H](CCCCN)NC(=O)[C@H](Cc2ccc(O)cc2)NC(=O)[C@H](CC(C)C)NC(=O)[C@@H]2CCCN2C(=O)[C@H](C)NC(=O)CNC(=O)[C@@H]2CSSC[C@H](NC(=O)[C@H](CC(C)C)NC(=O)[C@H](CCCCN)NC(=O)[C@H](CCCCN)NC(=O)[C@H]([C@@H](C)CC)NC1=O)C(=O)N[C@@H](CCC(=O)O)C(=O)N[C@@H](CC(N)=O)C(=O)NCC(=O)N2	parasite growth	–	3D7	72 h	5% serum plus Albumax II	~27000 nM
Clc1ccc(C2=CC(c3ccc[nH]3)=NC2=CNC2CCCCCC2)cc1	parasite growth	–	7G8, chloroquine-resistant	–	–	348 nM
CC[C@H](C)[C@@H]1NC(=O)[C@H](CCCCN)NC(=O)[C@H](CCCCN)NC(=O)[C@H](Cc2ccc(O)cc2)NC(=O)[C@H](CC(C)C)NC(=O)[C@@H]2CCCN2C(=O)[C@H](C)NC(=O)CNC(=O)CNC(=O)[C@H](CO)NC(=O)CNC(=O)CNC(=O)[C@H](CO)NC(=O)[C@H](CCC(=O)O)NC(=O)[C@H](CC(C)C)NC(=O)[C@H](CC(C)C)NC(=O)[C@H](CCCNC(=N)N)NC(=O)[C@H](CCCCN)NC(=O)[C@H]([C@@H](C)CC)NC(=O)[C@H]([C@@H](C)CC)NC(=O)[C@H](CCCCN)NC(=O)[C@H](CCCCN)NC(=O)[C@H](Cc2ccc(O)cc2)NC(=O)[C@H](CC(C)C)NC(=O)[C@@H]2CCCN2C(=O)[C@H](C)NC(=O)CNC(=O)CNC(=O)[C@H](CO)NC(=O)CNC(=O)CNC(=O)[C@H](CO)NC(=O)[C@H](CCC(=O)O)NC(=O)[C@H](CC(C)C)NC(=O)[C@H](CC(C)C)NC(=O)[C@H](CCCNC(=N)N)NC(=O)[C@H](CCCCN)NC(=O)[C@H]([C@@H](C)CC)NC1=O	parasite growth	–	3D7	72 h	Albumax II medium, no serum	5300 ± 400 nM
COC1=CC(c2ccc[nH]2)=NC1=CN1CCCCC1	parasite growth	–	Dd2, chloroquine-resistant	–	–	> 2500 nM
CC(C)(C)c1cc(CN(Cc2ccccn2)Cc2ccccn2)c(O)c(CN(Cc2ccccn2)Cc2ccccn2)c1	growth	[3H]hypoxanthine incorporation	W2 chloroquine-resistant	48 h	–	221 ± 75 nM
C#CCOc1ccc(C=NNC(=N)NN=Cc2ccc(OCC#C)cc2)cc1	parasite growth	SYBR Green	SB1-A6, respiratory inhibitor resistant	72 h	–	153 nM
C1=CC(c2ccc[nH]2)=NC1=CNC12CC3CC(CC(C3)C1)C2	parasite growth	–	Dd2, chloroquine-resistant	–	–	295 nM
COC(=O)c1cc2c([nH]c3ccccc32)c(-c2ccc3c(c2)OCO3)n1	parasite growth	–	–	48 h	drug-resistant strain, blood stage	9.04 µg/mL
C[C@H]1C(=O)O[C@@H]2O[C@@]3(C)CC[C@@H]4[C@@]2(OO3)[C@H]1CC[C@]4(C)O	parasite growth	SYBR Green I	Dd2, chloroquine-resistant	–	–	133 nM
CC[C@H](C)[C@@H]1NC(=O)[C@H](CCCCN)NC(=O)[C@H](CCCCN)NC(=O)[C@H](Cc2ccc(O)cc2)NC(=O)[C@H](CC(C)C)NC(=O)[C@@H]2CCCN2C(=O)[C@H](C)NC(=O)CNC(=O)CNC(=O)[C@H](CO)NC(=O)CNC(=O)CNC(=O)[C@H](CO)NC(=O)[C@H](CCC(=O)O)NC(=O)[C@H](CC(C)C)NC(=O)[C@H](CC(C)C)NC(=O)[C@H](CCCCN)NC(=O)[C@H](CCCCN)NC(=O)[C@H]([C@@H](C)CC)NC(=O)[C@H]([C@@H](C)CC)NC(=O)[C@H](CCCCN)NC(=O)[C@H](CCCCN)NC(=O)[C@H](Cc2ccc(O)cc2)NC(=O)[C@H](CC(C)C)NC(=O)[C@@H]2CCCN2C(=O)CNC(=O)CNC(=O)[C@@H](NC(=O)CN)CSSC[C@@H](C(N)=O)NC(=O)[C@H](CC(C)C)NC(=O)[C@H](CCCCN)NC(=O)[C@H](CCCCN)NC(=O)[C@H]([C@@H](C)CC)NC1=O	parasite growth	–	3D7	72 h	Albumax II medium, no serum	6400 ± 200 nM
COc1ccc2c(c1)C1CC(C)(N2)c2c(C)nc3ccc(OC)cc3c21 (stereo not shown)	parasite growth	SYBR green I	Cam3.1 R539T (MRA1240)	–	–	11.3 ± 1.09 nM
O=C(O)[C@@H]1Cc2c([nH]c3ccccc23)[C@@H](c2ccc(Cl)cc2Br)N1	parasite growth	–	Dd2	72 h	–	360 ± 40 nM
C(=NC12CC3CC(CC(C3)C1)C2)c1cc(-c2ccc[nH]2)c[nH]1	parasite growth	–	7G8, chloroquine-resistant	–	–	> 2500 nM
COC1=CC(c2ccc[nH]2)=NC12O[C@@H](C)C[C@@H]1CCCCC(=O)CCc3ccc([nH]3)[C@H]12 (stereo partly shown)	parasite growth	–	DD2	–	drug-resistant strain, blood stage	127 nM
CC[C@H](C)[C@@H]1NC(=O)[C@H](CCCCN)NC(=O)[C@H](CCCCN)NC(=O)[C@H](Cc2ccc(O)cc2)NC(=O)[C@H](CC(C)C)NC(=O)[C@@H]2CCCN2C(=O)[C@H](C)NC(=O)CNC(=O)CNC(=O)[C@H](CO)NC(=O)CNC(=O)CNC(=O)[C@H](CO)NC(=O)[C@H](CCC(=O)O)NC(=O)[C@H](CC(C)C)NC(=O)[C@H](CC(C)C)NC(=O)[C@H](CCCCN)NC(=O)[C@H](CCCCN)NC(=O)[C@H]([C@@H](C)CC)NC(=O)[C@H]([C@@H](C)CC)NC(=O)[C@H](CCCCN)NC(=O)[C@H](CCCCN)NC(=O)[C@H](Cc2ccc(O)cc2)NC(=O)[C@H](CC(C)C)NC(=O)[C@@H]2CCCN2C(=O)CNC(=O)CNC(=O)CSC[C@@H](C(N)=O)NC(=O)[C@H](CC(C)C)NC(=O)[C@H](CCCCN)NC(=O)[C@H](CCCCN)NC(=O)[C@H]([C@@H](C)CC)NC1=O	parasite growth	–	3D7	72 h	5% serum plus Albumax II	~40000 nM
CC1=CC(c2ccc[nH]2)=NC1=CNC1CCCCCC1	parasite growth	–	Dd2, chloroquine-resistant	–	–	> 250 nM
NNCC1=C(O)C(=O)c2ccccc2C1=O	parasite growth	–	W2	–	drug-resistant strain, blood stage	11200 nM
CC1(C2CC2)OOC2(CCN(C(=O)c3ccccc3)CC2)OO1	parasite growth	imaging	3D7	48 h	blood stage	44.6 nM
CC(C)C1=CC(=CNC23CC4CC(CC(C4)C2)C3)N=C1c1ccc[nH]1	parasite growth	–	7G8, chloroquine-resistant	–	–	31 nM

Some of these lines once more:
Structure (SMILES)	observed	technique	strain	time	setting	IC50
COc1ccc2c(c1)C1CC(C)(N2)c2c(C)nc3ccc(OC)cc3c21 (stereo not shown)	parasite growth	SYBR green I	Cam3.1 R539T (MRA1240)	–	–	11.3 ± 1.09 nM
O=C(O)[C@@H]1Cc2c([nH]c3ccccc23)[C@@H](c2ccc(Cl)cc2Br)N1	parasite growth	–	Dd2	72 h	–	360 ± 40 nM
C(=NC12CC3CC(CC(C3)C1)C2)c1cc(-c2ccc[nH]2)c[nH]1	parasite growth	–	7G8, chloroquine-resistant	–	–	> 2500 nM
